Results of several laboratories.
Compare with care: the assays were run in different laboratories. Values joined by “and” are separate records of one study, mostly repeats; a detail may differ. ± gives the spread as reported. ≈ marks a conversion by molar mass, not a printed value.

| SMILES | tested on | test | test system | setting | how to read | measurement | value |
| --- | --- | --- | --- | --- | --- | --- | --- |
| CC(CCc1ccccc1)NC(C)C(O)c1ccc(O)cc1 (centres unmarked) | Plasmodium falciparum |  | 3D7 |  |  | IC50 | 12600 nM |
| COc1cc(F)ccc1-c1c[nH]c(C(=O)NC2CCCCCCC2)c1 | Vero |  |  | 48 h |  | IC50 | > 64 µg/mL |
| CCCN(CCC)[C@H]1CCc2c(F)ccc(O)c2C1 | Plasmodium falciparum |  | Dd2 |  |  | IC50 | 1580 nM |
| COCCn1c2nc(=O)n(-c3ccccc3)c(=O)c-2nc2ccccc21 | Zika virus | viral replication |  |  |  | EC50 | 690 nM |
| Nc1ccn(C[C@@H](CO)OCP(=O)(O)O)c(=O)n1 | Fowlpox virus | viral infection | CEF | 6.25 µM | reference: untreated | infection | 103% and 109% and 99.3% |
| Nc1ncnc2c1ncn2[C@@H]1O[C@@H]2COP(=O)(O)O[C@H]3[C@@H](O)[C@H](n4cnc5c(=O)[nH]cnc54)O[C@@H]3COP(=O)(O)O[C@H]2[C@H]1O | HFF-1 | RNA sequencing, measured: Cross-presentation |  | upregulated pathway | reference: Zika virus alone | pathway fold enrichment | 6.75 |
| Nc1ncc(-c2nc(N3CCOCC3)nc(N3CCOCC3)n2)c(C(F)F)n1 | SJCRH30 |  |  | 72 h |  | GI50 | 126 nM |
| CC(C)[C@H]1NC(=O)[C@H](Cc2ccccc2)NC(=O)CNC(=O)[C@@H](Cc2c[nH]c3ccccc23)NC(=O)[C@H](CCCCN)NC(=O)[C@@H](CCCN)NC1=O | Naegleria fowleri |  |  | trophozoites |  | IC90 | > 16 µg/mL |
| COc1ccc2c(c1)[nH]c1c(C)nccc12 | DU-145 | bisulfite pyrosequencing, measured: RASSF1A promoter CpG site 25 |  | 10 µM, 16 h |  | DNA methylation | 86.7% |
| NCCCC[C@@H]1NC(=O)[C@@H](CCCCN)NC(=O)[C@H](CO)NC(=O)[C@H](Cc2c[nH]c3ccccc23)NC(=O)[C@@H](Cc2c[nH]c3ccccc23)NC(=O)[C@H](Cc2ccccc2)NC(=O)[C@@H](CCCCN)NC1=O | Acanthamoeba castellanii |  |  | trophozoites |  | IC50 | > 16 µg/mL |
| C=CCc1ccccc1OCC(O)CNC1(C)CCC(C(C)(C)NC(=O)CBr)CC1 (centres unmarked) | Plasmodium falciparum |  | 7G8 |  |  | IC50 | 3160 nM |
| CNC1(c2ccccc2Cl)CCCCC1=O (centres unmarked) | H+/organic cation antiporter | cell uptake | hCMEC/D3 |  |  | Vmax | 600 pmol/min/mg protein |
| CC(=O)Nc1sc(C)c(C)c1CN1CCc2ccccc2C1 | Plasmodium falciparum | parasite growth, SYBR Green | 3D7 DHODH E182D | 72 h |  | EC50 | 604 ± 39 nM |
| C#CCN(C)[C@H](C)Cc1ccccc1 |  | passive avoidance test | APP/PS1 mice | oral, 10 mg/kg, 3 days |  | step-through latency | 422 ± 67.8 s |
| CC[C@H](C)[C@@H]1NC(=O)[C@@H]2CCCN2C(=O)[C@H](CC(C)C)NC(=O)[C@H](CC(C)C)NC(=O)CNC(=O)[C@@H](NC(=O)[C@@H](NC(=O)[C@H](CC(=O)O)NC(=O)CNC(=O)[C@@H](NC(=O)[C@H](C)NC(=O)CNC(=O)[C@H](CCCCN)NC(=O)[C@H](CC(C)C)NC(=O)[C@H](CC(C)C)NC(=O)[C@H](CCCCN)NC(=O)CNC(=O)[C@@H](NC(=O)[C@@H](N)CC(C)C)C(C)C)C(C)C)C(C)C)CSSC[C@@H](C(=O)O)NC1=O |  | RNA-seq, measured: Pim1 | mouse, traumatic brain injury model, frontal cortex and hippocampus | dose not given | reference: TBI alone | log2 fold change | -3.22 |
| COc1c(CCC[P+](c2ccccc2)(c2ccccc2)c2ccccc2)cc2c(c1OC)OCO2.[I-] | NCI-H226 | SRB |  |  |  | GI50 | -5.48 log M |
| Cc1cc(NC(=O)c2cc(S(=O)(=O)N3CCCCC3)ccc2C)no1 | Plasmodium falciparum | parasite growth, SYBR Green |  | 72 h | reference: 3D7-E182D over 3D7 | EC50 ratio | 5.4 |
| C[C@H]1c2cccc(O)c2C(=O)C2=C(O)[C@]3(O)C(=O)C(C(N)=O)=C(O)[C@@H](N(C)C)[C@@H]3[C@@H](O)[C@@H]21 | Plasmodium falciparum |  | W2 |  |  | IC50 | 794 nM |

| SMILES | tested on | test | test system | setting | how to read | measurement | value |
| --- | --- | --- | --- | --- | --- | --- | --- |
| COc1ccc(-n2ccnc2SCC(=O)Nc2cccc(C(F)(F)F)c2)c(OC)c1 | Plasmodium falciparum | parasite growth | Dd2 |  |  | EC50 | 92 ± 33 nM |
| COC(=O)[C@@H]1[C@H]2C[C@H]3c4[nH]c5ccccc5c4CCN3C[C@@H]2CC[C@@H]1O | Plasmodium falciparum |  | W2 |  |  | IC50 | 2000 nM |
| NCCCC[C@H]1NC(=O)[C@H](Cc2ccccc2)NC(=O)[C@H](Cc2c[nH]c3ccccc23)NC(=O)[C@@H](Cc2ccccc2)NC(=O)[C@H](Cc2ccccc2)NC(=O)[C@@H](CCCN)NC(=O)[C@H](CCCN)NC1=O | Naegleria fowleri |  |  | trophozoites |  | IC50 | > 16 µg/mL |
| CNCC[C@@H](Oc1ccccc1C)c1ccccc1 | Plasmodium falciparum |  | 3D7 |  |  | IC50 | 20000 nM |
| COc1nc(NCC(C)C)nc(Oc2ccc(=O)n(Cc3ccccc3)n2)n1 | Plasmodium falciparum | parasite growth, SYBR Green | 3D7 DHODH E182D | 72 h |  | EC50 | 5570 ± 640 nM |
| COc1cc(CCC[P+](c2ccccc2)(c2ccccc2)c2ccccc2)c(OC)c2c1OCO2.[I-] | A498 | SRB |  |  |  | TGI | -5.37 log M |
| O=C(Nc1cccc(CN2CCN(C(=O)c3cccc(Cl)c3)CC2)c1)c1cccs1 | Plasmodium falciparum | parasite growth, SYBR Green | 3D7 DHODH E182D | 72 h |  | EC50 | 846 ± 120 nM |
| O=C(O)C1=CC(=C(c2ccc(O)c(C(=O)O)c2)c2ccc(O)c(C(=O)O)c2)C=CC1=O | Plasmodium falciparum |  | D10 |  |  | IC50 | 10000 nM |
| O=C(NC1C2CC3CC(C2)CC1C3)c1cc(-c2ccc(F)nc2)c[nH]1 (centres unmarked) | Vero |  |  | 48 h |  | IC50 | 35.2 µg/mL |
| COc1c(C)c2c(c(O)c1C/C=C(\C)CCC(=O)O)C(=O)OC2 | liver cancer cell lines | cell proliferation |  | average over lines |  | IC50 | 562 nM |
| CCCOc1ccccc1-c1nc2sc3c(c2c(=O)[nH]1)CCN(C)C3 | Plasmodium falciparum | parasite growth, SYBR Green | 3D7 wild type | 72 h |  | EC50 | 4560 ± 60 nM |
| CC[C@H](C)[C@H](NC(=O)[C@H](C)NC(=O)[C@H](CCCCN)NC(=O)[C@H](CC(C)C)NC(=O)[C@H](C)NC(=O)[C@@H](NC(=O)[C@H](Cc1c[nH]cn1)NC(=O)[C@H](CC(C)C)NC(=O)[C@@H](NC(=O)[C@@H](NC(=O)[C@H](CCCCN)NC(=O)[C@H](C)NC(=O)[C@H](C)NC(=O)[C@H](CO)NC(=O)[C@H](CCCCN)NC(=O)[C@H](Cc1ccccc1)NC(=O)[C@@H](NC(=O)[C@H](CCCCN)NC(=O)[C@H](CC(C)C)NC(=O)[C@H](Cc1ccccc1)NC(=O)[C@H](CO)NC(=O)[C@H](CCCCN)NC(=O)[C@H](Cc1c[nH]c2ccccc12)NC(=O)[C@H](CCCCN)NC(C)=O)[C@@H](C)O)[C@@H](C)O)C(C)C)[C@@H](C)O)C(=O)N[C@@H](CO)C(=O)N[C@@H](CO)C(N)=O | Citrobacter |  |  | 20 strains |  | MIC90 | 16 µg/mL (≈ 5.45 µM) |
| CC(C)[C@@H]1NC(=O)[C@@H](Cc2ccccc2)NC(=O)[C@H](CCCNC(=N)N)NC(=O)[C@@H]([C@H](C)O)NC(=O)[C@H](CC(N)=O)NC(=O)[C@@H](C(C)C)NC1=O | Acanthamoeba castellanii |  |  | trophozoites |  | IC90 | > 16 µg/mL |
| N=C(N)NC(=O)Cc1c(Cl)cccc1Cl | Plasmodium falciparum |  | 7G8 |  |  | IC50 | 5010 nM |
| C#CCN(C)[C@H](C)Cc1ccccc1 |  | footprint test | MPTP-induced Parkinson's disease mouse model | 10 mg/kg |  | corridor crossing time | 5.62 s and 5.04 s and 5.58 s and 5.93 s and 7.98 s and 6.52 s and 3.59 s |
| C[C@H]1[C@@H](O)O[C@@H]2O[C@@]3(C)CC[C@H]4[C@H](C)CC[C@@H]1[C@@]24OO3 | Plasmodium falciparum | parasite growth | Dd2 |  |  | EC50 | 2.28 ± 0.4 nM |
| c1ccc(C(NCCNC(c2ccccc2)c2ccccc2)c2ccccc2)cc1 | L-type calcium channel, rat, Dihydropyridine site | binding |  | 10 µM, Eurofins selectivity panel |  | inhibition | 85% |

Excerpt of the above:
| SMILES | tested on | test | test system | setting | how to read | measurement | value |
| --- | --- | --- | --- | --- | --- | --- | --- |
| CCCOc1ccccc1-c1nc2sc3c(c2c(=O)[nH]1)CCN(C)C3 | Plasmodium falciparum | parasite growth, SYBR Green | 3D7 wild type | 72 h |  | EC50 | 4560 ± 60 nM |
| CC[C@H](C)[C@H](NC(=O)[C@H](C)NC(=O)[C@H](CCCCN)NC(=O)[C@H](CC(C)C)NC(=O)[C@H](C)NC(=O)[C@@H](NC(=O)[C@H](Cc1c[nH]cn1)NC(=O)[C@H](CC(C)C)NC(=O)[C@@H](NC(=O)[C@@H](NC(=O)[C@H](CCCCN)NC(=O)[C@H](C)NC(=O)[C@H](C)NC(=O)[C@H](CO)NC(=O)[C@H](CCCCN)NC(=O)[C@H](Cc1ccccc1)NC(=O)[C@@H](NC(=O)[C@H](CCCCN)NC(=O)[C@H](CC(C)C)NC(=O)[C@H](Cc1ccccc1)NC(=O)[C@H](CO)NC(=O)[C@H](CCCCN)NC(=O)[C@H](Cc1c[nH]c2ccccc12)NC(=O)[C@H](CCCCN)NC(C)=O)[C@@H](C)O)[C@@H](C)O)C(C)C)[C@@H](C)O)C(=O)N[C@@H](CO)C(=O)N[C@@H](CO)C(N)=O | Citrobacter |  |  | 20 strains |  | MIC90 | 16 µg/mL (≈ 5.45 µM) |
| CC(C)[C@@H]1NC(=O)[C@@H](Cc2ccccc2)NC(=O)[C@H](CCCNC(=N)N)NC(=O)[C@@H]([C@H](C)O)NC(=O)[C@H](CC(N)=O)NC(=O)[C@@H](C(C)C)NC1=O | Acanthamoeba castellanii |  |  | trophozoites |  | IC90 | > 16 µg/mL |
